Measurements gathered from unrelated publications.
Lines come from different studies, so protocols differ.
Target: Protein kinase C alpha type (PRKCA, Homo sapiens, UniProt P17252)

SMILES = Cc1cc(Nc2cc(N3CCN(C)CC3)nc(Sc3ccc(NC(=O)C4CC4)cc3)n2)[nH]n1; test = kinase activity, KinaseProfiler; setting = 0.03 µM, species human; scale = relative to: control; endpoint = remaining activity; result = 84%
SMILES = O=C1NC(=O)/C(=C/c2ccc(-c3ccc(F)cc3O)o2)S1; test = enzyme activity; setting = 10 µM; endpoint = remaining activity; result = 102%
SMILES = CNc1ncc2c(/C=C/C(=O)N3CCC(OC)CC3)nn(Cc3cccc(C(F)(F)F)c3)c2n1; test = kinase activity, inhibitor; setting = 1 µM; scale = relative to: untreated control; endpoint = remaining activity; result = 98%
SMILES = c1cnc2ccc(Nc3nc(NC4CC4)c4nc[nH]c4n3)cc2c1; test = kinase activity, inhibitor, SelectScreen kinase profiling; setting = 1 µM; scale = relative to: control; endpoint = remaining activity; result = 84%
SMILES = COc1cc(F)ccc1-c1ncnc(Nc2cccc(C[S@](C)(=N)=O)c2)n1; test = kinase activity; setting = 10 µM, added: 10 µM ATP; endpoint = remaining activity; result = 69%
SMILES = C=CC(=O)N1CCC[C@@H](n2nc(-c3ccc(Oc4ccccc4)cc3)c3c(N)ncnc32)C1; setting = 1 µM; endpoint = remaining activity; result = 30.1%
SMILES = CNc1cccc2cc(C(=O)Nc3ccc(C(=O)O)cc3)c(=O)[nH]c12; test = kinase activity, inhibitor; setting = 10 µM; endpoint = inhibition; result = 0.66%
SMILES = COc1cc(-c2cncc3c2CN(C)Cc2cc(N4CCNCC4)ccc2-3)cc(OC)c1OC; test = kinase activity; setting = 1 µM, human enzyme, added: ATP 10 µM; scale = relative to: DMSO control; endpoint = remaining activity; result = 88%

Excerpt of the above:
SMILES = CNc1cccc2cc(C(=O)Nc3ccc(C(=O)O)cc3)c(=O)[nH]c12; test = kinase activity, inhibitor; setting = 10 µM; endpoint = inhibition; result = 0.66%
